# Measured values gathered from unrelated publications.
# Each numbered part is a random draw from the data of one study; scales do not carry over between parts. Substitutions count along the parent as printed.

# Set 1
# Target: RNA binding protein fox-1 homolog 2, RRM domain, GST-SBP tag (RBFOX2, Homo sapiens, UniProt O43251-10, residues 100-194)
# Method: RNA Bind-n-Seq
# Form: RNA
# Medium: in vitro
# Tested at: 365 nM
# Setting: natural RNA segment, single round, ends assumed
# Baseline: no-protein control
# Reading: higher = stronger binding
# Residues (chain): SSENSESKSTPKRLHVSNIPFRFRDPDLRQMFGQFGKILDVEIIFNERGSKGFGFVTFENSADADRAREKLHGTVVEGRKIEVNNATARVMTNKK
Sequence,RBNS enrichment (R)
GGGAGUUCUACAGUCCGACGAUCUUUCUCAUCAAUUCUCUAUCAUGUUGAAGUCAAAUUUGGAUUUUCCACCAAAUUCUGAAUUUGUAGACAUACUUGUACGCUCACUUGCCCCAGAUGCCUCCUCUGUCCUCUGGAAUUCUCGGGUGCCAA,0.483
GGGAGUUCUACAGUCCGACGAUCUCAUGCAUAUCAUUGAAAAUUUCUCGUUUUCAUUUUCUUAGAUGACUUCUUGUCUGAGACAGAAAAAUUUCCUACUACAGCAGUGCAGUCCAGAGGUUAAGAUGUAUUAGUGGAAUUCUCGGGUGCCAA,0.381
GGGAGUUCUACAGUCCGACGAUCUUCACUCAAACUUCUUUAAAUGGGGAAAAAUAUUUGUGACUCUGUGGCUGGCAGAAGAAAUAAGCCCAUGCAAGUGGAAGGGCUGCUUUGUCAGGAGGUUGUGGAAUUUCUGGAAUUCUCGGGUGCCAA,1.83
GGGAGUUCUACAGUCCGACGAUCCGUAUGUAAUAUAGAGACUCCUGGGAUGUUUGGCCAUAUGUUACCGCUUUUGGAAGAAAGUCCAGGGACCCAGAAAAGGGAGGGGGAAGAUACCCAUUUCACCCCAGCGUUGGAAUUCUCGGGUGCCAA,0.381
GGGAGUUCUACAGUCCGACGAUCAGCCCUAAGUCUCCUUCUUUAUUAUUAGGAAAACAACAACAACAACAAACAAAAAAAUGGCGUCAUGAAUAUGAACAGCAUUGUCAGAUGAAUUAGUUGAAGUGGUUUUUUGGAAUUCUCGGGUGCCAA,0.332
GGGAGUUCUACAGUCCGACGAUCAGCUGGUGUUAAAGUUCCCACGACGCACAUGGCUUUGCCAGAAACUCUGUUUAAUGAUCGGCCUUUCACCUCUUCACUUAUCCUUAGUCCCAGUAGCCAGGAUACCUGAUUGGAAUUCUCGGGUGCCAA,0.414
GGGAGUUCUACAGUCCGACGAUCACAAGUACCAUUGUUGAUUGAUAAGUAGAGAUACAUUUUUUAUGAUGUUCAUCACAGUGUGGUAAGGUUGCAAAUUCAAAACAUGUCACCCAAGCUCUGUUCAUGUUUUUUGGAAUUCUCGGGUGCCAA,0.351
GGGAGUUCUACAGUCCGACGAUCAUGACAUGGUUAAUCUGGAACUUACGUUCUUAUACCAAUAAAAGGUACCUCAAUACAUGUUCUUUCAUUUCUGUUUUGUUUUUUUUUUUUUAAUUUAAUGUAUUAAAGCAUGGAAUUCUCGGGUGCCAA,0.874
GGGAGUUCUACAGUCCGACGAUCUUGAUUUUGAUCAGCCUUUUGAAGAUGGGUGUCGUUUCCCUAACUUAUCUCACAGAAUUUUGAGUGUUGUAUUUGGCAAGUUCUGAGAUUUGCCUUCUGUCUUAUGCCAAUGGAAUUCUCGGGUGCCAA,0.769
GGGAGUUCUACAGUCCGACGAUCCUGUAUAUGUUGAAAACGUAAUACCUGUUAAUGUCCUAAUGAAUCACGUUUUGCAGAAAACACCGUAAGAAACACUUCAGUCUUUCUGUAGUUUCCAUGCAUAUUUCACCUGGAAUUCUCGGGUGCCAA,1.46
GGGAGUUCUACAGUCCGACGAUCUCUUGGGCAGACCAAACUCAGGCCUGAUGCAACCAAGUUGCCCCUGGGUCCUAGCGACACCUCCUCACCCAAAUUUUCCUGUCUUCAAUAUCCUCAACAGACAAAAGAAGUGGAAUUCUCGGGUGCCAA,0.196
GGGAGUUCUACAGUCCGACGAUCUUGAUAAGCUAUGUUGUUGCACUUUAAACAUUUAAAUUAUACAAUCAUCAACCCCCAACCCUCUGGGUCUCUUGGAUUUCAGAGUGAAAACUUGAUUGGCAUUGAGAGGUUGGAAUUCUCGGGUGCCAA,3.3

# Set 2
# Target: CCNB1, cyclin fold, Cln2 fusion (human)
# Method: yeast growth competition, sequencing
# Medium: yeast
# Setting: weak parent motif
# Baseline: not given
# Reading: higher = stronger binding
# Starting sequence: HASPIN docking peptide (human); ASLRSVLFGLMNS
Variant,normalised enrichment score
V6A,0.176
S5A,0.424
S13A,-0.486
L3A,0.123
R4A,-0.637
F8A,-0.204

# Set 3
# Target: Centromere-binding protein 1, full length, His-tagged (CBF1, Saccharomyces cerevisiae, UniProt P17106, residues 1-351)
# Sequence of UniProt P17106 (whole entry, looked up): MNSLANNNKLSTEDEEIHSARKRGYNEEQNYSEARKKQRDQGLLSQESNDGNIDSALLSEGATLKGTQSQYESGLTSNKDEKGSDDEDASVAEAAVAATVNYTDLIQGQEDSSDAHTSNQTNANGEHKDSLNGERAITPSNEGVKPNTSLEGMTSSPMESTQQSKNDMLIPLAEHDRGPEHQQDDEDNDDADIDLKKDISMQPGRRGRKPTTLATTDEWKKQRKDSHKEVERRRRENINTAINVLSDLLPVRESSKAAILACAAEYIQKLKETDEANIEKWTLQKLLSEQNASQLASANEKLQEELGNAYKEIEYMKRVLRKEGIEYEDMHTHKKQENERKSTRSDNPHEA
# Method: competition protein-binding microarray
# Form: double-stranded DNA, one strand shown
# Medium: in vitro
# Tested at: 2 µM
# Setting: whole 60-bp probe, lowest competitor level
# With: Pho4 competitor, 0.05 µM
# Reading: higher = stronger binding
Sequence,fluorescence intensity
TGGGCGGAAATCGCGCAGATGTGGTGTTTGAGTGTTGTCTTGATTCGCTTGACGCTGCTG,80.1 a.u.
CCATAGGTTCACATCCATGTGCACTGGTGCTGCGTTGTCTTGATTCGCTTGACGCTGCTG,85.2 a.u.
CTTCTGTAAATTTGTCACAGGACTTGACGCGCCCCGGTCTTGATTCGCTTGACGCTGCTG,105 a.u.
CTTCTGTAAATTTGTGTGGTGGGTGGACGCGCCCCGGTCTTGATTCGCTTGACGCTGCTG,80.6 a.u.
CCGGTCCTTTGCTGGCACGTGAATTGGATAGTACATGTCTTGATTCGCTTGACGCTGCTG,1730 a.u.
CTTTCCCGATCTTGAAAAGTGGGTGTAGCACATTTGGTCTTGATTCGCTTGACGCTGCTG,63.8 a.u.
AAGTGCAGCCGATTGGGCGTGCGATTCACCCACTCAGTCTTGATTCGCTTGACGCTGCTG,51.7 a.u.
AAATTACTAAGTTGATCGGTGGGTGACGCCGTATGAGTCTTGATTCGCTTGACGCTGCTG,65.8 a.u.
CCCAGCAAGCGTTCATCCGTGACGGGTTCAGCAAGGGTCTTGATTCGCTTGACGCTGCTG,52.9 a.u.
ATTAAAATCATTTAGTCCTTTATCTCTTATCCTTTTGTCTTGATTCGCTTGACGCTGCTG,102 a.u.
TATCACTGAGCTGTTCTCGTGGCCGTTAGGTAAACCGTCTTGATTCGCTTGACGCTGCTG,85.1 a.u.
CTAACGAAGGTTTTTCACGTGAAATACAAGCCAAGTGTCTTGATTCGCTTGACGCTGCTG,914 a.u.
GTTGGACCTTGGTTCCACGGGGTTCATTTCAGGCTGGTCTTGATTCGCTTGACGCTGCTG,77.5 a.u.
GTCTTGTCTCATTTTCACGTGTATTTCCCCACTTCAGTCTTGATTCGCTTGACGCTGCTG,717 a.u.
CTTCATTCAAAGGTCCACGTTCAATTAAGTAACAAGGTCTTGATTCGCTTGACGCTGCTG,88.9 a.u.
ATGCGAGCGAACCGGCACATGTACCAAACTTTATCAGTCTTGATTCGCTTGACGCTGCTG,148 a.u.
AAATTACTAAGTTGATCAGTGGGTGACGCCGTATGAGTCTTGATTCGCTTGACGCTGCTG,77 a.u.
TCATCACCAGAAAGTGACATGACAAGAGATTCTGGTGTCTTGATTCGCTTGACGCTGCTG,64.1 a.u.
GTCTTGTCTCATTTTCACGTGCCATTCCCCACTTCAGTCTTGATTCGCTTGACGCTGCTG,929 a.u.
ATATTTTATCATCCACACGTGGTGATATTTCAACGAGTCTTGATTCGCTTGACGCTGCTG,998 a.u.
TTAAGTCTATTATCAAGCATGATAACCATCATCAATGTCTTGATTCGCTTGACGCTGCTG,102 a.u.
AAATTACTAAGTTGACTCGTGGGTGACGCCGTATGAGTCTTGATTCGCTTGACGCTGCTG,80.1 a.u.
GTCTTGTCTCATTTTCACGTGAGTTTCCCCACTTCAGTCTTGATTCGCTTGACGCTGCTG,738 a.u.

# Set 4
# Target: RING finger protein unkempt homolog, zinc fingers 1-6, GST-SBP tag (UNK, Homo sapiens, UniProt Q9C0B0, residues 30-357)
# Sequence of UniProt Q9C0B0 (30-357, looked up): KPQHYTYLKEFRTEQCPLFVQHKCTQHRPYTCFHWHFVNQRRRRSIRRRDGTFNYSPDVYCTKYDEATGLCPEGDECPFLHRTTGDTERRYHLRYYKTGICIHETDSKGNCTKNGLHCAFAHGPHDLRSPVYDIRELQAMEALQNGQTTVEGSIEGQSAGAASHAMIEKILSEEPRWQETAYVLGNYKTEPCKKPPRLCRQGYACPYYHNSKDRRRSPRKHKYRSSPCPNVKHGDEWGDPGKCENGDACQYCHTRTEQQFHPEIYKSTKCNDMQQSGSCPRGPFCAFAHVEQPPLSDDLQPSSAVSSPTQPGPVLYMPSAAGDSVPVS
# Method: RNA Bind-n-Seq
# Form: RNA
# Medium: in vitro
# Tested at: not given
# Setting: RNA with constant flanks, human and mouse sites, ends assumed
# Baseline: input RNA pool
# Reading: higher = stronger binding
Sequence,bound/input enrichment [ratio]
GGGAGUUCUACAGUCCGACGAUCCUGUGCUUUCUCAUAUUUAAUUUGCUGUUUUUAAGAUAUUCCAACCUAGAGUUUUUGAUGGAACUGAUAUAUUGACAGUUCUCACCGAAGUCCUUUUAUAAAGAAUUGCUACUCCAAUAUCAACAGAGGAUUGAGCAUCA,4.88
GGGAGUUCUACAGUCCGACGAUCCUGAAUGGCUUGGAAUAUGUACCACAAAGACUGAGAAAUCUUAAUGAAAUUAACAAGCUGCUGGCACACCGGCCCUGGCUGAUCACAAAAGAGCACAUUCAGAAACUUGUCAAAACUGGACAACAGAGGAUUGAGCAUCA,0.216
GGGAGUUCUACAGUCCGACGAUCUGUGCGGCCGCAGGCGGAGCAGGGCGGCCCGGGCGGCGGUGGGGACAACGGUUUCCCUUUGAAGGGGACGGACAAAGCCCGAGUGACCAGCGGCGGCGGGGAGGACUAGUCCCCGGGCAGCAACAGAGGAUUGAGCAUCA,0.326
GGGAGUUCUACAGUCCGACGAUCCAUGCCCUCAGCCACAAGCGGGUGACUGACUGUUCCCUGAUGAUUUGGCCCACCUCCUGUGUUUGGACCUCUAGGGAGGAGGGUUUUGGUCAUACUCUCCUUAUCCUCGUGCACAGAAAUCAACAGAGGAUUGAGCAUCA,0.162
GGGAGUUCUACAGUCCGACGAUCCUCUCUUCCCCCCUUUUUGAGUUGUUGGGCAGUUCUUAUUUCUUGCUUGCUUUUCGGUUUCUUGCUGUUGUUGGGUGUUUUUUUUGUUUGUUUGUUUGUUUGUUUGUUCUCGCUUUUUUUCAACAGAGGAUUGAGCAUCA,1.48
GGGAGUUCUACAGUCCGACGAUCUUCUUAGACCUUUUAGACAUCUUAAUAAGAAGUCCUGGGAGUAUAAAACGAGAAGAAAAGCUAGAAGAUCUUAAGCUACUUUUUGUACAUGUACAUCAUCUUAUAAAUGAAUAUCGACCCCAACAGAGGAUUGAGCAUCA,0.645
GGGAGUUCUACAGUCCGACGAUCGAAAGGACCCUGGGACUGAGCAGCCCUUGUGACAACCGUGUCCCCACUCCGCAGCUGUACUUCACCACGCCCUCCAACCAGAACGUCUACCAGGUGGACUCCCUGCAGUCUACGUGAAAGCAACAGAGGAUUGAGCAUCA,0.205
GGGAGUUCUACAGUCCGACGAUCUAGGCAAAAUACUUUUCAGGCCUUUUUAAAAAAUUCAUUACAGCAAACAGCUGGGGAAGGACAUGCAGUCCUCCCCCAGCUCUGUCAAUGACUAUGACCUUGGCCAAAGCACUUCACUGCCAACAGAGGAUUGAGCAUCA,0.228
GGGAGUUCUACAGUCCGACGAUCCCGCCACGUCCUGCUUCAGGAGGAGGUGGCCGAGCUGCAGGGCCAGGUCCAGCGCACCGAAGUGGCCCGCGGGCGGCUGGAAAAGCGCAAUUCGGACCUCUUGCUGUUGGUGGACACGCACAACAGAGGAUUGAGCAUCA,0.126
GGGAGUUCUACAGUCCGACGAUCCAUUUCACAACUAGAUUGUAUAAGGAUAUUAGCUGUGAUGAGACUCACUGCAUUAUUUUUUUUAGUGAAUUUUAUGAAAUCCCCGUUCCAUUCAACAGGCACAUGUUUAAAAGAGCUUUGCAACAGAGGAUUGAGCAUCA,1.79
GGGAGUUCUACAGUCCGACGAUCAAAGAAGAAAGAAAAGGAAAAAAAAUAUAAAAGACAGCCAGAAGAAUCUGAGUCAAAGACGAAAUCUCAUGAUGAUGGGAACAUAGAUUUAGAAUCUGAUUCCUUUUUAAAGUUUGAUUCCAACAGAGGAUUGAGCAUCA,0.385

# For quick reference, copied from above (set 3):
Sequence,fluorescence intensity
CTTTCCCGATCTTGAAAAGTGGGTGTAGCACATTTGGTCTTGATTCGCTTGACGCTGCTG,63.8 a.u.
ATTAAAATCATTTAGTCCTTTATCTCTTATCCTTTTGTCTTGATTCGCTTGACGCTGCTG,102 a.u.
CTTCATTCAAAGGTCCACGTTCAATTAAGTAACAAGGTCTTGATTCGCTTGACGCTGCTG,88.9 a.u.
TATCACTGAGCTGTTCTCGTGGCCGTTAGGTAAACCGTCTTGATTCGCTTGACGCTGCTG,85.1 a.u.
ATGCGAGCGAACCGGCACATGTACCAAACTTTATCAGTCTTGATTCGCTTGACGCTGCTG,148 a.u.
